Experimental data pooled from the literature.
Compare with care: the assays were run in different laboratories. Several values in a cell are separate wells, animals, samples, runs or records. Numbers after ± are the reported error.
Cacna1b: Voltage-dependent N-type calcium channel subunit alpha-1B (Cacna1b, Rattus norvegicus, UniProt Q02294)
Chain of UniProt Q02294 (whole entry, looked up): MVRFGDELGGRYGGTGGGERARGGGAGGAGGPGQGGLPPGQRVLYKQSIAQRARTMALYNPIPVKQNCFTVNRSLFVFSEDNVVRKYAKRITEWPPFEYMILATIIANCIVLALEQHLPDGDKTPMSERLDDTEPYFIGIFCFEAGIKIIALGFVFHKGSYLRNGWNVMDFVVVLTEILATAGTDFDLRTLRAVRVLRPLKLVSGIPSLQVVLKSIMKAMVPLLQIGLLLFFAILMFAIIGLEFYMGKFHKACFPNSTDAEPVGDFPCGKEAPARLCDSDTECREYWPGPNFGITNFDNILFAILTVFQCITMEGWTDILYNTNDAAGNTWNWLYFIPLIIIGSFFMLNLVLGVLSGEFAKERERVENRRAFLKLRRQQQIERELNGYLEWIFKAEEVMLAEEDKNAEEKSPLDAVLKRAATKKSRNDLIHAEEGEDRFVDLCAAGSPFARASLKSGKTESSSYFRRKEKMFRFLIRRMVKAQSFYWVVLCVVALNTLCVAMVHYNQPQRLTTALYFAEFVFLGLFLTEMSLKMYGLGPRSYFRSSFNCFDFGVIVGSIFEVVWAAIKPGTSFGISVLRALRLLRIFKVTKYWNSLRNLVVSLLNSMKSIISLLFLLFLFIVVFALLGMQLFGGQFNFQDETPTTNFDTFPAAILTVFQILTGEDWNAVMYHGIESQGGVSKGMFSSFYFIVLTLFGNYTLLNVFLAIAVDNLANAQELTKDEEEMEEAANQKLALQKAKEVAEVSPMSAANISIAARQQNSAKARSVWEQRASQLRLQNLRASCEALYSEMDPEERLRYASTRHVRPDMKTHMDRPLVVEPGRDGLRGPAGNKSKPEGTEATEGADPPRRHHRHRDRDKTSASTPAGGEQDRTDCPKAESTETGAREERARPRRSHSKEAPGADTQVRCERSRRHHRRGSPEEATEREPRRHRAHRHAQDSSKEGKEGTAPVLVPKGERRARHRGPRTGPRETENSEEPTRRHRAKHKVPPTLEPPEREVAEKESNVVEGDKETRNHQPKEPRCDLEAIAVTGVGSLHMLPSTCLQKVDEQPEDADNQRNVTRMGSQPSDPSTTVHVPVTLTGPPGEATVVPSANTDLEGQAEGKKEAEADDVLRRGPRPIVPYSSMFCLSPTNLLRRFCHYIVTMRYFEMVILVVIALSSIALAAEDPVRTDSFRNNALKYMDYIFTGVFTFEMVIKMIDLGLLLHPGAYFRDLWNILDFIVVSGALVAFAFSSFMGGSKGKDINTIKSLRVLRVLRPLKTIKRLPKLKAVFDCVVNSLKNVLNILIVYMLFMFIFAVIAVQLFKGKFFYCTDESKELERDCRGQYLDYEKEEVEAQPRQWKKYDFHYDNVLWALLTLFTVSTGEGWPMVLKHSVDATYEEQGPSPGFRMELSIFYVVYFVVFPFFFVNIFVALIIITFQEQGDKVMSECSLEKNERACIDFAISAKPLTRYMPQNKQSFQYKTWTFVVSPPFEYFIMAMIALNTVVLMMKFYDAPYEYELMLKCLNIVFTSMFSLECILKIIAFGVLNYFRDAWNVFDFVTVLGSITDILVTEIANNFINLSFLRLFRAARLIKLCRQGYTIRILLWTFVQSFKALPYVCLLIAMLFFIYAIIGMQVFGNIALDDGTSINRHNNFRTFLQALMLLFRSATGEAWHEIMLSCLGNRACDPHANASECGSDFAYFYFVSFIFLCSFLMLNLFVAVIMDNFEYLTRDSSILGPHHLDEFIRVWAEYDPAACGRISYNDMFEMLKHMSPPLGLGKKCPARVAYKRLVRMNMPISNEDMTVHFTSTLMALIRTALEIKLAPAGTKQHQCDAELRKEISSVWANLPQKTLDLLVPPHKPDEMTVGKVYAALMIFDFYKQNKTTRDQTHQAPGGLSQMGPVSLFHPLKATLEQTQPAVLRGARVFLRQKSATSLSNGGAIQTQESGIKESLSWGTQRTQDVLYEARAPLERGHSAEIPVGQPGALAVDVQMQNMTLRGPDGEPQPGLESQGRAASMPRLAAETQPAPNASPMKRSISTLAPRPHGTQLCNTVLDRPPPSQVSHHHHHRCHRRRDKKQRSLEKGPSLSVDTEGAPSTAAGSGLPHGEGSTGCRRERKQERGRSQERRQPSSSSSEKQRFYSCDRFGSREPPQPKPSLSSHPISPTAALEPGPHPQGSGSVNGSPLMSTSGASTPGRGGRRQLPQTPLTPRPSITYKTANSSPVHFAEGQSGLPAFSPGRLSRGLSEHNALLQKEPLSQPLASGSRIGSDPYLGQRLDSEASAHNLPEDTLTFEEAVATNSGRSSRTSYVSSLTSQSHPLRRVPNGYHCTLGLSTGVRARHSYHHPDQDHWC
Palmitoyl-protein thioesterase 1: Palmitoyl-protein thioesterase 1 (Homo sapiens, UniProt P50897)
Chain of UniProt P50897 (whole entry, looked up): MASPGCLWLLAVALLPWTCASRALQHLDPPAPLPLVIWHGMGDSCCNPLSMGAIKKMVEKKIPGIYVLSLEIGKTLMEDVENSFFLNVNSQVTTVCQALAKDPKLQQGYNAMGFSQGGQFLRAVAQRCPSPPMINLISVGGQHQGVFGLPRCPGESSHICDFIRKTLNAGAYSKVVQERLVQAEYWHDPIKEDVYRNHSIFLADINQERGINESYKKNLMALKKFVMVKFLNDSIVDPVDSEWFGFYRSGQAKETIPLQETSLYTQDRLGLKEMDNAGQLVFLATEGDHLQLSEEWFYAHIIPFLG
HTR1E: 5-hydroxytryptamine receptor 1E (HTR1E, Homo sapiens, UniProt P28566)
Chain of UniProt P28566 (whole entry, looked up): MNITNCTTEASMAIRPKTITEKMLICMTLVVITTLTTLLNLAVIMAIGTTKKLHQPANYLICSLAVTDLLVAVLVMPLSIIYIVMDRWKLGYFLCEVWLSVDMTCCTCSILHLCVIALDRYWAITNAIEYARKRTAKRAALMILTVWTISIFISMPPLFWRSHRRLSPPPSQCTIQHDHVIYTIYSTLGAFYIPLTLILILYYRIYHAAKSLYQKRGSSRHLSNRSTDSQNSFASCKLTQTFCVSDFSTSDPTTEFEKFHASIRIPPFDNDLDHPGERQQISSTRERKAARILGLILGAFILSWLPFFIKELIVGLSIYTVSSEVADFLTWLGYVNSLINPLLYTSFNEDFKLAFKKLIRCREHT
Luciferin 4-monooxygenase: Luciferin 4-monooxygenase (Photinus pyralis, UniProt P08659)
Chain of UniProt Q8IWT6 (whole entry, unmodified, looked up): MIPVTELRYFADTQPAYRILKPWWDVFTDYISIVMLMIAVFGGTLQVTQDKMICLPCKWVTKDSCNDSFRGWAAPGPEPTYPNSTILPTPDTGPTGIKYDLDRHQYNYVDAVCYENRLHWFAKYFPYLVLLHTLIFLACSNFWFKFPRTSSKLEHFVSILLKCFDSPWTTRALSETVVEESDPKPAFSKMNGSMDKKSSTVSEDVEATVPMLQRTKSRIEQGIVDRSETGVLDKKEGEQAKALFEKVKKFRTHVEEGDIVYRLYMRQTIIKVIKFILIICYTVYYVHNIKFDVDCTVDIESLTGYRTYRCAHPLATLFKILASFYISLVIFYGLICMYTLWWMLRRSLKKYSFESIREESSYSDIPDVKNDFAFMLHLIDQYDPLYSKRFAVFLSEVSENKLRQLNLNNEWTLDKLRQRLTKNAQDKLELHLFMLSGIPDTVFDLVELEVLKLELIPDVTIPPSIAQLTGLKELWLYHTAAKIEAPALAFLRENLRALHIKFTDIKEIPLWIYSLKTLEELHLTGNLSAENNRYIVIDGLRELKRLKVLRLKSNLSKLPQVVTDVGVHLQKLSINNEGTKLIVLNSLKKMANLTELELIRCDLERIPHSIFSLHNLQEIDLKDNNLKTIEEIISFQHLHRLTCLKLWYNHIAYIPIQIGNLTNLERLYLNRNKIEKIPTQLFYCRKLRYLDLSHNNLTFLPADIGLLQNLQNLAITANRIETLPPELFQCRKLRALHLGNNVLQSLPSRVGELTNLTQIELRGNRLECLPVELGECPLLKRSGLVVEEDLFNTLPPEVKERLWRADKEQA
Chain of UniProt P08659 (whole entry, looked up): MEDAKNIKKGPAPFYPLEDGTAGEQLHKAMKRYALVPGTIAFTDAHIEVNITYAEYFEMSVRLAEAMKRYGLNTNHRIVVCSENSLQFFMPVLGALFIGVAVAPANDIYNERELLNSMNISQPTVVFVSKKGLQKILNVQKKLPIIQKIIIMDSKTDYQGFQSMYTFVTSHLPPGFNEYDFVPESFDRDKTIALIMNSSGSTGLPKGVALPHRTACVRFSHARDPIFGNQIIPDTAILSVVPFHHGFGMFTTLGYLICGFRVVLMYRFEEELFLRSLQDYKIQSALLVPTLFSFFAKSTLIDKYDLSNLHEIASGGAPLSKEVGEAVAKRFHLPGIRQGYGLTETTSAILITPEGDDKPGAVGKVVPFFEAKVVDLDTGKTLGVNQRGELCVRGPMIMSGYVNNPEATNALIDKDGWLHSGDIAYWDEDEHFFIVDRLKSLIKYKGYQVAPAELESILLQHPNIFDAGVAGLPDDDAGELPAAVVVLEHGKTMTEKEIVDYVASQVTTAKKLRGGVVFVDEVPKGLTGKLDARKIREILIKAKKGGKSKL
Chain of UniProt Q9Y2U5 (whole entry, looked up): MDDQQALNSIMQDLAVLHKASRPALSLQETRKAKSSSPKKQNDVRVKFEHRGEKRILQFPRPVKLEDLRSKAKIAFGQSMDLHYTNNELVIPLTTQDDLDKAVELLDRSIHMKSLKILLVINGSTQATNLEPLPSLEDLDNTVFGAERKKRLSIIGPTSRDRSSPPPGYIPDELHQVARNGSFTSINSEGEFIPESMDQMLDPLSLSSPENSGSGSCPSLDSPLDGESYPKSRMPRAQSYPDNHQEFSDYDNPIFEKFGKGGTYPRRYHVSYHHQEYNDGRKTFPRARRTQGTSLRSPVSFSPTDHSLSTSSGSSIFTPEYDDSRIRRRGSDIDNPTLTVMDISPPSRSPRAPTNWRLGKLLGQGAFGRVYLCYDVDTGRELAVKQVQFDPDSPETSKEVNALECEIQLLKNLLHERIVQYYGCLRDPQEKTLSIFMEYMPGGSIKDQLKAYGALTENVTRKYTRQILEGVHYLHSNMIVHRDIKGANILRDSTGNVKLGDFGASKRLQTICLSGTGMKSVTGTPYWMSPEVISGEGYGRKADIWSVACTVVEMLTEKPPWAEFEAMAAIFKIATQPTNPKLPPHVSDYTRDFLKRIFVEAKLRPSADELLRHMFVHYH

| SMILES | target | test | system | setting | inhibition |
| --- | --- | --- | --- | --- | --- |
| CC(C)c1noc2ncc(C(=O)c3ccccc3O)cc12 | Cacna1b | ion current, inhibitor, whole-cell patch clamp | – | 10 µM | 0.93% and 0% and 3.4% |
| CCCCCCCCCCCCCCCC(=O)O[C@@H]1[C@@H](O)[C@@H](O)[C@@H]([C@H](NC(=O)[C@@H]2C[C@@H](CCC)CN2C)[C@H](C)Cl)O[C@@H]1SC.Cl | Palmitoyl-protein thioesterase 1 | Spectrum Collection screen | – | concentration not given, added: substrate 20 µM | 77.4% |
| COc1cccc(OC[C@@H]2CN(CCN3CCc4ccccc43)CCO2)c1 | HTR1E | radioligand binding | – | concentration not given, added: [3H]5-HT | -10.8% |
| CC[C@@H]1[C@H](F)C(=O)N[C@@H]1COc1nccc2cc(C(N)=O)c(OC)cc12 | Mitogen-activated protein kinase kinase kinase 2 (MAP3K2, Homo sapiens, UniProt Q9Y2U5) | ATP-site probe binding, ActivX profiling | THP-1 cell lysate | 0.01 mM, Lys1 site | -0.4% |
| CCOC(=O)[N-]c1cn(N2CCOCC2)n[o+]1 | Palmitoyl-protein thioesterase 1 | Spectrum Collection screen | – | concentration not given, added: substrate 20 µM | 69.3% |
| COc1ccc2c(c1)C(CC(=O)O)=C/C2=C\c1ccc(-c2ccccc2)cc1 | Prostaglandin G/H synthase 1 (PTGS1, Ovis aries, UniProt P05979) | enzyme activity | – | 4 µM, added: 5 µM arachidonic acid | 38 to 49% |
| Cc1cccc(N(O)N=Nc2ccc(S(=O)(=O)Nc3nccs3)cc2)c1 | α-glucosidase, rat intestine | enzyme activity | – | 60 µg/mL, added: 4-nitrophenyl α-D-glucopyranoside | 10 ± 0.041% |
| CN(Cc1ccc(F)cc1)Cc1nc(-c2ccc3c(c2)OCO3)no1 | Luciferin 4-monooxygenase | luciferase luminescence, inhibitor | cell-free | 50 µM, counter-screen | 42.7% |
| CCCN(O)N=Nc1ccc(S(=O)(=O)Nc2cc(C)on2)cc1 | α-glucosidase, rat intestine | enzyme activity | – | 180 µg/mL, added: 4-nitrophenyl α-D-glucopyranoside | 45 ± 1.68% |
| Clc1cncc(OC[C@@H]2CN(CCN3CCc4ccccc43)CCO2)c1 | HTR1E | radioligand binding | – | concentration not given, added: [3H]5-HT | -8.6% |
| Cc1ncc2c(c1-c1noc(-c3cccc(N4CCOCC4)c3)n1)CCNC2 | Luciferin 4-monooxygenase | luciferase luminescence, inhibitor | cell-free | 50 µM, counter-screen | 9.81% |
| CCCN(O)N=Nc1ccc(S(=O)(=O)Nc2onc(C)c2C)cc1 | α-glucosidase, rat intestine | enzyme activity | – | 60 µg/mL, added: 4-nitrophenyl α-D-glucopyranoside | 17.5 ± 0.09% |
| CCN1/C(=C/C(C)=O)Sc2ccc(F)cc21 | Cacna1b | – | – | 10 µM | 0.62% |
| Cc1nn(-c2nc3c(F)cc(F)cc3s2)c(O)c1C(c1ccccc1C(F)(F)F)c1c(C)nn(-c2nc3c(F)cc(F)cc3s2)c1O | Cyclic GMP-AMP synthase, catalytic domain; with DNA (CGAS, Homo sapiens, UniProt Q8N884) | cGAS phase separation, inhibitor | – | 200 µM | 98.2% |
| COc1cc(-c2cc(C(C)=O)n3ccccc23)c(OC)cc1Cn1ccnc1 | Peregrin (BRPF1, Homo sapiens, UniProt P55201) | – | – | 1 µM | 0.12% |
| COc1cc2c(cc1OC)C(=O)N(CCCCN1CCN(c3ccccc3OC)CC1)C2 | HTR1E | radioligand binding | – | concentration not given, added: [3H]5-HT | 16.5% |
| CCCN(O)N=Nc1ccc(S(=O)(=O)Nc2nccs2)cc1 | α-glucosidase, rat intestine | enzyme activity | – | 60 µg/mL, added: 4-nitrophenyl α-D-glucopyranoside | 20 ± 0.013% |
| O=C(Nc1cccc2c(=O)cc(-c3nnn[nH]3)oc12)c1ccc(OCCCCc2ccccc2)cc1 | LRRC8A/LRRC8C (Homo sapiens, UniProt Q8IWT6+Q8TDW0, M48D/T48D) | ion current, whole-cell patch clamp | HCT LRRC8-/- cells | 1 µM, -100 mV, T48D/M48D heteromers | 0.424% and 4.74% and 3.66% |
| CCN(O)N=Nc1ccc(S(=O)(=O)Nc2cc(C)on2)cc1 | α-glucosidase, rat intestine | enzyme activity | – | 60 µg/mL, added: 4-nitrophenyl α-D-glucopyranoside | 37.5 ± 1.25% |
| FC(F)(F)C1=C/C(=C/CCCCCCOCc2ccccc2)c2cc3c(cc21)OCO3 | Protein disulfide-isomerase (P4HB, Homo sapiens, UniProt P07237) | enzyme activity, inhibitor, insulin reduction | – | concentration not given, biochemical | no effect |

Excerpt of the above:
| SMILES | target | test | system | setting | inhibition |
| --- | --- | --- | --- | --- | --- |
| CC[C@@H]1[C@H](F)C(=O)N[C@@H]1COc1nccc2cc(C(N)=O)c(OC)cc12 | Mitogen-activated protein kinase kinase kinase 2 (MAP3K2, Homo sapiens, UniProt Q9Y2U5) | ATP-site probe binding, ActivX profiling | THP-1 cell lysate | 0.01 mM, Lys1 site | -0.4% |
